Assay results collected from several papers.
A part holds a random share of what one study measured. Substitutions count along the parent as printed.

Sample 1
Target: Centromere-binding protein 1, full length, His-tagged (CBF1, Saccharomyces cerevisiae, UniProt P17106, residues 1-351)
Chain of UniProt P17106 (whole entry, looked up): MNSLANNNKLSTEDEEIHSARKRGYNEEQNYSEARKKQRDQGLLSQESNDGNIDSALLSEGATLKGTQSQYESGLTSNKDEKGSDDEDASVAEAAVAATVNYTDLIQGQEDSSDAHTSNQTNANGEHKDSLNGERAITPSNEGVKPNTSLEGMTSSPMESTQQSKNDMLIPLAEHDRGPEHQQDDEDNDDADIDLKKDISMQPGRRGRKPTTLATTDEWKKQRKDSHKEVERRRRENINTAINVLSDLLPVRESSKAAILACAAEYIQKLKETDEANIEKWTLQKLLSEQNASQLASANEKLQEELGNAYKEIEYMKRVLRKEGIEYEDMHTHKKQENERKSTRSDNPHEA
Method: competition protein-binding microarray
Molecule type: double-stranded DNA, one strand shown
Matrix: in vitro
Concentration: 2 µM
Notes: whole 60-bp probe, lowest competitor level
Together with: Pho4 competitor, 0.05 µM
Direction: higher = stronger binding
With `GTCTTGTCTCATTGTCACGGCACTTTCCCCACTTCAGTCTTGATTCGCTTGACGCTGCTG` the fluorescence intensity was 129 a.u.
`CGGCAAGAAAAAGATCGTGTGTCTCTAGAGCAGCTTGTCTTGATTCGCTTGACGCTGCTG` gave a fluorescence intensity of 67.2 a.u.
For `GAAGAACAAATTTTCCACATGCTTGTGCCTGCTTTAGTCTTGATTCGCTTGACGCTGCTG`, the fluorescence intensity was 78.1 a.u.
`TGTACTCGGTCAACACACGTGCACAGAGCACCTACTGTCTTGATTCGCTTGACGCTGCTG` gave a fluorescence intensity of 933 a.u.
`CGGGGTTAAGTTTTTCACGTGCATTGCTTGCAGCAGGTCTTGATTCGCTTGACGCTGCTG` has a fluorescence intensity of 843 a.u.
The fluorescence intensity of `AAATCTGATTCTCACCACGTGCAAAAAAGATTGTACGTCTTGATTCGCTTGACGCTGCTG` is reported as 2250 a.u.
`CTTCTGTAAATTTGAAGAGTGGGTGGACGCGCCCCGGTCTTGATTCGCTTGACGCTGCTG` gave a fluorescence intensity of 84.6 a.u.
`GGCGTCGCTAGCTGGCACGGCACTGATTGCGGCGGGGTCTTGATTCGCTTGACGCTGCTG` has a fluorescence intensity of 72.8 a.u.
With `TGCGCAACAACTTGCTCTGTGGGTGTATGTCTAGAAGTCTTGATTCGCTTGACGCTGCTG` the fluorescence intensity was 58 a.u.
For `CGGGGTTAAGTTTGTCACCAGACTTGCTTGCAGCAGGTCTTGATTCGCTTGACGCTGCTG`, the fluorescence intensity was 65.5 a.u.
The fluorescence intensity of `CGGGGTTAAGTTTGTCACCGCACTTGCTTGCAGCAGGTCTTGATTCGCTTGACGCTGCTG` is reported as 68.1 a.u.
The fluorescence intensity of `GTCTTGTCTCATTGTCACACTACTTTCCCCACTTCAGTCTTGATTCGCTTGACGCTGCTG` is reported as 126 a.u.

Sample 2
Target: CCNA1, cyclin fold, Cln2 fusion (human)
Method: yeast growth competition, sequencing
Matrix: yeast
Notes: weak parent motif
Relative to: not given
Direction: higher = stronger binding
Parent: PKMYT1 docking peptide (human); SFEPRNLLSLFED; partner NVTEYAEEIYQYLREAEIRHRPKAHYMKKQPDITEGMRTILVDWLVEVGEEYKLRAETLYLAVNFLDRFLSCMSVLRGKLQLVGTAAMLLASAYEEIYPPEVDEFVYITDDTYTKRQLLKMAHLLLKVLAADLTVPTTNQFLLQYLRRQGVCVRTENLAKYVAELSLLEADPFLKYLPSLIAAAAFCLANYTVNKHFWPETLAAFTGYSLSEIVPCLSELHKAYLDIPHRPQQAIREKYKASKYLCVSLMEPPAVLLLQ
Under “normalised enrichment score”, `S1F` is recorded as 0.104.
For `N6Y`, “normalised enrichment score” read 0.188.
Under “normalised enrichment score”, `N6L` is recorded as 0.129.
`E3T`: “normalised enrichment score” 0.136.
Under “normalised enrichment score”, `R5Q` is recorded as -0.0708.
Under “normalised enrichment score”, `L7D` is recorded as 0.272.
`D13P`: “normalised enrichment score” 0.231.
`N6V`: “normalised enrichment score” 0.188.
`E3P` — result for “normalised enrichment score”: 0.173.
Under “normalised enrichment score”, `E3F` is recorded as -0.0202.
Under “normalised enrichment score”, `F2A` is recorded as 0.136.
`P4E`: “normalised enrichment score” 0.107.
`E3M` — result for “normalised enrichment score”: 0.0941.

Sample 3
Target: Histone acetyltransferase KAT6A, winged helix 1, GST fusion (KAT6A, Homo sapiens, UniProt Q92794, residues 1-85)
Method: protein binding microarray
Molecule type: double-stranded DNA, one strand shown
Matrix: in vitro
Concentration: not given
Notes: 8-mer, flanks averaged, mean of 2 arrays, mostly near background
Relative to: not given
Direction: higher = stronger binding
Construct (chain): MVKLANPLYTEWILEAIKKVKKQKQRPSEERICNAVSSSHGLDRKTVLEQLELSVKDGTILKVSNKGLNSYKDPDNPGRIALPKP
`GCCATGGA` gave an E-score of 0.0232.
With `CTTGGCCA` the E-score was -0.307.
With `CAATCTGG` the E-score was -0.242.
With `CCACAAGC` the E-score was -0.0666.
`CGGCGACG` has an E-score of 0.424.
`ATCCCTCG` has an E-score of -0.027.
The E-score of `AACTACCT` is reported as -0.0939.
With `CCGCCCCC` the E-score was 0.338.
With `GAAGGTAA` the E-score was -0.0191.
`AAAGTATC` gave an E-score of -0.0745.
For `CGGATTAC`, the E-score was 0.0988.
For `AACATAAC`, the E-score was -0.0339.
For `AAAAGTTG`, the E-score was -0.0744.
With `CCTCACTA` the E-score was -0.0777.
For `GATTGGAA`, the E-score was -0.187.
For `GGCCGACA`, the E-score was 0.282.
`CTCATCGA` gave an E-score of -0.199.
`AGATGTAT` has an E-score of -0.104.
With `AATGATAT` the E-score was 0.0302.
The E-score of `ATGGTAGC` is reported as 0.0403.
With `CTGTACCC` the E-score was 0.0975.
With `GCACCCGC` the E-score was 0.377.
With `GTAAAGTA` the E-score was 0.00439.
The E-score of `CGAGCCGA` is reported as 0.0716.
The E-score of `TCGCTAGA` is reported as -0.111.

Sample 4
Target: ABI1, truncated, D143A, DHFR fusion (Arabidopsis thaliana, UniProt P49597)
Method: DHFR PCA, dose-response
Matrix: yeast
Notes: Hill fit, mean, not affinity
Together with: (+)-ABA, dose series
Direction: lower = more sensitive
Parent: PYL1, truncated, DHFR fusion (Arabidopsis thaliana, UniProt Q8VZS8); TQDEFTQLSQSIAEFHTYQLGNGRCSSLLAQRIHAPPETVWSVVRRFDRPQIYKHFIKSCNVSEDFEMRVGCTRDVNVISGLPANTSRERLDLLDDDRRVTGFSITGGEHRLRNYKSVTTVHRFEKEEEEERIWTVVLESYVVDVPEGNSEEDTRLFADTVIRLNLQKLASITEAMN
With `L29G` the ABA EC50 was 622 µM.
`T73S` gave an ABA EC50 of 4.16 µM.
For `G23H`, the ABA EC50 was 4.32 µM.
For `G21D`, the ABA EC50 was 1.98 µM.
The ABA EC50 of `H55A` is reported as 0.234 µM.
For `E151I`, the ABA EC50 was 3.27 µM.
`D159C` gave an ABA EC50 of 66.7 µM.
With `V40A` the ABA EC50 was 148 µM.
`M176F` has an ABA EC50 of 4.08 µM.
With `G71E` the ABA EC50 was 131 µM.
`E67P` gave an ABA EC50 of 3.65 µM.
With `F157V` the ABA EC50 was 35.2 µM.
`L82I` has an ABA EC50 of 4.5 µM.
With `E174F` the ABA EC50 was 38.1 µM.
`T173Q` gave an ABA EC50 of 192 µM.
For `I33S`, the ABA EC50 was 360 µM.

Sample 5
Target: Prothrombin, mature alpha-thrombin (F2, Homo sapiens, UniProt P00734)
Method: aptamer microarray, sandwich
Molecule type: DNA with 2'F-ANA
Matrix: in vitro
Concentration: 200 nM
Notes: whole 15-mer aptamer, many near background
Together with: Cy3 exosite-II aptamer, 400 nM
Direction: higher = stronger binding
Oligonucleotide: GGTTGGTGTGGTTGG
Under “mean fluorescence intensity”, `2'F-ANA at 1 3 4 6 7 8 9 12 13 15` is recorded as 259 a.u.
`2'F-ANA at 3 4 6 7 8 11 13 14` — result for “mean fluorescence intensity”: 310 a.u.
Under “mean fluorescence intensity”, `2'F-ANA at 3 4 6 9 12 15` is recorded as 805 a.u.
Under “mean fluorescence intensity”, `2'F-ANA at 1 3 4 5 6 7 10 12 13` is recorded as 49.7 a.u.
Under “mean fluorescence intensity”, `2'F-ANA at 1 3 4 8 9 11 12 13 15` is recorded as 288 a.u.
`2'F-ANA at 2 4 6 7 9 10 11 13 14 15`: “mean fluorescence intensity” 87.3 a.u.
For `2'F-ANA at 5 8 9 13 15`, “mean fluorescence intensity” read 69.9 a.u.
`2'F-ANA at 1 2 5 6 9 13 14`: “mean fluorescence intensity” 47.4 a.u.
`2'F-ANA at 1 3 4 5 6 7 10 13 15` — result for “mean fluorescence intensity”: 50.8 a.u.
`2'F-ANA at 2 4 6 7 8 12 13 14`: “mean fluorescence intensity” 118 a.u.
`2'F-ANA at 7 8 10 12 15` — result for “mean fluorescence intensity”: 228 a.u.
For `2'F-ANA at 1 2 3 5 7 9 10 11 13 14`, “mean fluorescence intensity” read 51.1 a.u.
Under “mean fluorescence intensity”, `2'F-ANA at 2 3 7 10 12` is recorded as 544 a.u.
For `2'F-ANA at 6 8 11 15`, “mean fluorescence intensity” read 417 a.u.
For `2'F-ANA at 2 5 9 10 12 13 14 15`, “mean fluorescence intensity” read 46.3 a.u.
Under “mean fluorescence intensity”, `2'F-ANA at 1 2 3 5 11 14 15` is recorded as 64.9 a.u.

Sample 6
Target: Ras GTPase-activating protein-binding protein 1, RRM domain (G3BP1, Homo sapiens, UniProt Q13283)
Chain of UniProt Q13283 (whole entry, looked up): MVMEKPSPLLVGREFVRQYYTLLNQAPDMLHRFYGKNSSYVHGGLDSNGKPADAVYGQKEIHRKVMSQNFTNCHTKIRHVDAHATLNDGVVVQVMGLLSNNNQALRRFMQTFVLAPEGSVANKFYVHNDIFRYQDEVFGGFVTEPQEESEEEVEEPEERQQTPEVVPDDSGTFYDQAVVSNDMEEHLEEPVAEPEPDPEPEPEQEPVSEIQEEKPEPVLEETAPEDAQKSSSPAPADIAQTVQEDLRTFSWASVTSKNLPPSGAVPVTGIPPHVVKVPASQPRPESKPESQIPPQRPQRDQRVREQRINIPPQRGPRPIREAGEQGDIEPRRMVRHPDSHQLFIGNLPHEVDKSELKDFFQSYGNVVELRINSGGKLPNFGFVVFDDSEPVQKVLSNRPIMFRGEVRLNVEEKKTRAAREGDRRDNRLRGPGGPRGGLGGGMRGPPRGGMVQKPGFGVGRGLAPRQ
Method: RNA Bind-n-Seq
Molecule type: RNA
Matrix: in vitro
Concentration: 1 µM
Notes: whole 134-nt RNA, ends assumed
Together with: 150 mM KCl
Relative to: input library
Direction: higher = stronger binding
The log2 enrichment of `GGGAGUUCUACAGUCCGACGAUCCCUGUGCUACACAUCGUAUGUACCGAAUCGGGUUUUUUUGGGUUUUUUUGGGAAAAAGGGAAAGUAUUAUGUUACGCCGUUCGGAUCUGCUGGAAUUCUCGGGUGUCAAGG` is reported as -0.209.
With `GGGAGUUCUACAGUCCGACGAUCCCUCAAGUCCUGUGCUACACAUCGUAUGUACCGAAUCGGCCGGGCCGGCCGGGAAAGUAUUAUGUUACGCCGUUCGGAUCUGCACUUCCAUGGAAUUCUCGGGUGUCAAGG` the log2 enrichment was -0.367.
`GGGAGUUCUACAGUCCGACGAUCUCCUGUGCUACACAUCGUAUGUACCGAAUCGGGUUUUUGGGUUUUUGGGAAAAAAAGGGAAAGUAUUAUGUUACGCCGUUCGGAUCUGCAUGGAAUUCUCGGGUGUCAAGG` has a log2 enrichment of -0.0365.
`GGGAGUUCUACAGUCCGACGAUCUCAAGUCCUGUGCUACACAUCGUAUGUACCGAAUCGGCCCGGGCCCGGGCCCGGAAAGUAUUAUGUUACGCCGUUCGGAUCUGCACUUCCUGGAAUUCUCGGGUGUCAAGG` has a log2 enrichment of -0.599.
`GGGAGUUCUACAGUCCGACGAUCCACAGACAACACGCACCCACACAGACACAGAGGGAAGGGGUUGGGAUGGGGACAGGGUGCACAGCAGGGCGGGGUAAAACCCCAGCCCCUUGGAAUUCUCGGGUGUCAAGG` gave a log2 enrichment of -0.0584.
With `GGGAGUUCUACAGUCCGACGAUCACCAUGCAGGUGUGCAUCUUUGGGAAGUGGGGCAAGGGGGGGAUAGGGAGGGGGGUAACACUUUGGGAACAGGUGGUCCCAGGUCGUUUCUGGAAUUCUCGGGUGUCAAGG` the log2 enrichment was -0.552.
The log2 enrichment of `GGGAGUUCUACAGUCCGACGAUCUCCUGUGCUACACAUCGUAUGUACCGAAUCGGUUUUUUGGGUUUUUUGGUUUUUUGGGGAAAGUAUUAUGUUACGCCGUUCGGAUCUGCAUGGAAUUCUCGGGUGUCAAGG` is reported as -0.293.
With `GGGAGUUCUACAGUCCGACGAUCGCAGGAAGUCAAAACAAAUGGAAAUGCUUCGGAUAGUGGCAGGGGUGGGGGUUGCUAAGGAAAGGGUGGGAUGGGAGUGGGUAAAGAGUUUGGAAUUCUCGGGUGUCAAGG` the log2 enrichment was 1.24.
